Measured values of several laboratories.
Numbered parts are unrelated; each lists some results of a single study.

Series 1
Target: Ras GTPase-activating protein-binding protein 1, full length (G3BP1, Homo sapiens, UniProt Q13283)
Sequence of UniProt Q13283 (whole entry, looked up): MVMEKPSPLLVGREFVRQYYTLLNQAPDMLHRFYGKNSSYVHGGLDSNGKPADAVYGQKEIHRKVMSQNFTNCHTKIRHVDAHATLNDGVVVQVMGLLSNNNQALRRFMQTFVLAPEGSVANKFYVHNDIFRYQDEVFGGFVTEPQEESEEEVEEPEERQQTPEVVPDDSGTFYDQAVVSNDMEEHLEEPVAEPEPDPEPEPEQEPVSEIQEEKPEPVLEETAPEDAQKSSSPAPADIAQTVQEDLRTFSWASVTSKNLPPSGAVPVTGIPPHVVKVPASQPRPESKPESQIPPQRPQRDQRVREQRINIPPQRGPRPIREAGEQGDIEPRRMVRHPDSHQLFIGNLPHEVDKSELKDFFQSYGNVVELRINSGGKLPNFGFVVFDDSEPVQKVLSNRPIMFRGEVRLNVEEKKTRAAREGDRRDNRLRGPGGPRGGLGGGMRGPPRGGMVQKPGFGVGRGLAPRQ
Method: RNA Bind-n-Seq
Form: RNA
Matrix: in vitro
Tested at: 200 nM
Setting: whole 134-nt RNA, ends assumed
Added: 150 mM KCl
Relative to: input library
Reading: higher = stronger binding
Shared flanks, not repeated: GGGAGUUCUACAGUCCGACGAUC … UGGAAUUCUCGGGUGUCAAGG
Strand	log2 enrichment
UCCUGUGCUACACAUCGUAUGUACCGAAUCGGCCCCCCGGGCCCCCCGGGGCCCCCCGGAAAGUAUUAUGUUACGCCGUUCGGAUCUGCA	-0.617
UCCUGUGCUACACAUCGUAUGUACCGAAUCGGUUUUUUGGGUUUUUUGGGGUUUUUUGGAAAGUAUUAUGUUACGCCGUUCGGAUCUGCA	-0.525
UGGGAGGUGGAUUUUGUUUAUUUUUUUAGCUCAUAUCCAGGGGUGGGAAUUUUUUUUUAAUAUGUGUCAUGAAUAAAGUUGUUUUUGAAA	0.152
UUCAAAGCGUUCGAAUGAGGAGACUGAUGACUAUGGGAAGGCGCAGGUAGCCAAAAGCAGCAGCAAGGAAUCCAGGUCAUCCAAGCUCCA	-1.79
AAGUCCUGUGCUACACAUCGUAUGUACCGAAUCGGGCCCCGGCCCCGGGCCCCGGGGAAAGUAUUAUGUUACGCCGUUCGGAUCUGCACU	-1.12
UAACUUUAGAGGAGGAUCUGAUGGAUAUGGCAGUGGACGUGGAUUUGGGGAUGGCUAUAAUAGGUAUGGAGGAGGACCUGGAGGUGGCAA	0.311
UGUUUAAUAAACGUGAAGAUGUCUCGCAGUCCUGAUGCGAAGGAAGACCCUGUGGAGUGCCCUCUUUGCAUGGAGCCCUUGGAGAUAGAU	-0.993
UGGGAGGUGGGUUUUGUUUAUUUUUUUAGCUCAUUUCCAGGGGUGGGAAUUUUUUUUUAAUAUGUGUCAUGAAUAAAGUUGUUUUUGAAA	0.386
ACCAUGCAGGUGGGCAUCUUUGGGAAGUGGGGCAAGGGGGGGAUAAAAAGGGGGGUAACACUUUGGGAACAGGUGGUCCCAGGUCGUUUC	0.585
GUCCUGUGCUACACAUCGUAUGUACCGAAUCGGGCCCCCGGGGCCCCCGGGGCCCCCGGAAAGUAUUAUGUUACGCCGUUCGGAUCUGCA	0.374
UAACUUUAGAGGAGGAUCUGAUGGAUCUGGCAGUGGACGUGGAUUUGGGGAUGGCUAUAAUGGGUAUGGAGGAGGACCUGGAGGUGGCAA	0.483
UGGGAGGUGGAUUUUGUUUACUUUUUUAGCUCAUUUCCAGGGGUGGGAAUUUUUUUUUAAUAUGUGUCAUGAAUAAAGUUGUUUUUGAAA	0.163
CCUGUGCUACACAUCGUAUGUACCGAAUCGGGGCCCCCCGGGGCCCCCCGGGGCCCCCCGGAAAGUAUUAUGUUACGCCGUUCGGAUCUG	-0.898
UUAGGGCCAAUCUUCGUCAAUAUGGUUUAGAGAAGUAUUACCUUGAUGUCCUGGUUUCAGAUGCAUCUAAACCUUCCUGGAGGAAGGGCA	-0.818

Series 2
Target: Histone acetyltransferase KAT6A, winged helix 1, GST fusion (KAT6A, Homo sapiens, UniProt Q92794, residues 1-85)
Method: protein binding microarray
Form: double-stranded DNA, one strand shown
Matrix: in vitro
Tested at: not given
Setting: 8-mer, flanks averaged, mean of 2 arrays, mostly near background
Relative to: not given
Reading: higher = stronger binding
Residues (chain): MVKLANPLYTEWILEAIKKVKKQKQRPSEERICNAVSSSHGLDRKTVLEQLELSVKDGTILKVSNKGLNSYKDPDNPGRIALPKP
Strand	E-score
CCGCTCGC	0.357
GTGTTAGA	-0.105
TAACGCTA	0.00951
CCAACTAA	-0.137
AAGTCAGG	0.00448
ATTTAATC	-0.159
ATCCTTAA	-0.247
CAAGTAGG	-0.221
GATCTCAC	0.0408
AACAGTCA	-0.1
AGTGAAGA	-0.258
CCAGACAG	-0.272
GATCCGCC	0.212
GCGCCAAC	0.217
CGTTTCAC	0.0281
CTGTCCGA	0.0923
GATCGGGC	0.195
GGGGGAGA	-0.0955
AGTGGAGG	-0.096

Series 3
Target: Prothrombin, mature alpha-thrombin (F2, Homo sapiens, UniProt P00734)
Method: aptamer microarray, sandwich
Form: DNA with 2'F-ANA
Matrix: in vitro
Tested at: 200 nM
Setting: whole 15-mer aptamer, many near background
Added: Cy3 exosite-II aptamer, 400 nM
Reading: higher = stronger binding
Strand: GGTTGGTGTGGTTGG
Modification	mean fluorescence intensity [a.u.]
2'F-ANA at 2 3 5 6 7 8 9 12 14	55.3
2'F-ANA at 1 2 6 7 9 12 15	261
2'F-ANA at 3 4 5 6 7 8 9 10 11 13 15	96.3
2'F-ANA at 2 7 8 10 11 13 15	115
2'F-ANA at 1 2 3 4 5 9	60.7
2'F-ANA at 1 4 5 10 11 12 14	42.1
2'F-ANA at 3 7 9 13 15	962
2'F-ANA at 1 2 3 4 5 8 12 13 15	87.3
2'F-ANA at 1 2 3 4 6 8 9 11 13	117
2'F-ANA at 1 4 9 10 12	58
2'F-ANA at 1 3 4 7 8 9 10 13 14	51.1
2'F-ANA at 1 3 4 5 8 9 10 12 13 14 15	65.7
2'F-ANA at 2 4 8 10 12 13	109
2'F-ANA at 1 2 3 4 7 13 14	68.6
2'F-ANA at 4 6 7 11 13	187
2'F-ANA at 1 2 8 11	174
2'F-ANA at 1 5 7 8 10 15	51.6
2'F-ANA at 1 4 5 6 10 11 12	47.9
2'F-ANA at 1 3 4 6 8 9 11 13 15	153
2'F-ANA at 2 3 4 5 6 10 12 13 14	44.5
2'F-ANA at 1 3 4 6 7 9 10 11 14	53.9

Series 4
Target: RNA binding protein fox-1 homolog 2, RRM domain, GST-SBP tag (RBFOX2, Homo sapiens, UniProt O43251-10, residues 100-194)
Method: RNA Bind-n-Seq
Form: RNA
Matrix: in vitro
Tested at: 365 nM
Setting: natural RNA segment, single round, ends assumed
Relative to: no-protein control
Reading: higher = stronger binding
Shared flanks, not repeated: GGGAGUUCUACAGUCCGACGAUC … UGGAAUUCUCGGGUGCCAA
Residues (chain): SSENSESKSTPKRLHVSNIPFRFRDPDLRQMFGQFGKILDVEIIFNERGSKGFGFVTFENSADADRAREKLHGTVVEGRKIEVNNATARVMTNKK
Strand	RBNS enrichment (R)
CCUUGAGAGUCAACUGUACAGAUGUUUGCAGGUGACUCCUGCUUGCCACCCACCCAUCAUAUUUGAUUCUGUGGGAGUGGGCACCCAUACACCUGUGUAUGUGAAAGUCA	0.479
UUGGGCCCAGGCUUCCUCCCCUCCAAGGUGAAACACUGCAGUCCCGGUGUGGUGGCUCCCCAUGCAGGACGGGCCAGGCUGGGAGUGCCGCCUUCCUGUGCCAAAUUCAG	0.301
UGCUAGUAAAUGGAGCUUUGUACAUAGUCAUUGUGAUGUCUUGGCUGCCCGGACACCACGUAAACAUAACACUAAAGAAACUGUCCUGGAGAUCCCAUCCUGCUACUAAG	0.542
AUAGUUAUGAAAUCUUAGCCACAAAAAAUAAAUCAGGUAAACAUUUUAACCUGUCGUUAAGUGUUGUAACUUCAAAAAACCAAAAUGCUUAUUUUAAUGUGAUUUUUCUA	0.774
CAGGGCUUUUGCUUUUCUUCAAAGUACUGAGGAUCCAACCCAGUGCCUUACACGCCAGGCAAGUGUGACCACUGAGCUAGGCUCCCGCCCCCUUUACUUUUUGAAGCCAU	0.383
UUAGAAUCUUUACCAAAGAUCUGGAGUUAGGGUAGCCUUUCUAUUUUAGUACUGAACUCCUGUGCCCUUCUUUUUUAAAAAGGUCUUCCCUCAUUUUGUAUAUUUAGCCA	1.06
AUAUUCCAAACAACCCAGGGUUAGCCUUGGCCUCGAUCCUGGCCUUGGCCUCCCUAGGCUAUAUCUGGGACUGGGGGGAUGACAUGCUCCCACUCUGGCUCCUUGUUCUC	0.241
CUAAGGUCAGAAGGGUUAACUCAACUGUCUAUUGUCACAUGAUGAAUAAAUAGAUGAAGUGAGAUACAAAGCUGGGUUUGAUUCAAAGCCCUUACUUUCCUAAUUAAACU	0.335
CUGUAGAUAGGAGGUGCUUCUGGUGAACUGAAAGUGUCUGACUCGUGAGGAACAUGGUAGGUUCCUCACUUAUCACUGUAGAUGAUUCUAUAUGGACACAACAGUAAGAA	0.69
GACUGCUAUUCUAAGAGCAUCAGGGCUCUGAGGGCCAAAGAAGCAAUGGGAGUCCUGAGCUAGUAUAGCUGUGUCACUUAUUAUAAAAGCAUAACUGUUUUUUAUUUGGA	0.309
GAGGGUUGUGCUACAGAUGAUAGAGGAUUUUAUACCCCAAUAAUCAACUCGUUUUUAUAUUAAUGUACUUGUUUCUCUGUUGUAAGAAUAGGCAUUAACACAAAGGAGGC	1
AACCGUCUCAUCAGCUCUUGACACUUCCAUCGUGCGUGGGGACUUUGCUUCCAGAGAAUUGGAACGUGUGUGGCCUGGAGCGCAGUAGAAACCAGCCGUUCCCAACCUAU	0.628
